Assay results from different studies.
Several values in a cell are separate wells, animals, samples, runs or records. Values after ≈ are worked out from the molar mass of the structure shown.

SMILES	tested on	test	test system	conditions	how to read	quantity	result
N#Cc1ccc2c(-c3ccncc3)c(-c3ccc(F)cc3)nn2c1	Pom1 kinase Candida albicans	MIB/MS competition binding	Candida albicans cell lysate	10 µM	reference: DMSO, lower = stronger binding	log2 fold change	-1
Cc1c(CN2CCN(C(=O)[C@H](C)O)CC2)sc2c(N3CCOCC3)nc(-c3cnc(N)nc3)nc12	phospho-Akt	Akt phosphorylation, inhibitor	human patients with alveolar rhabdomyosarcoma, plasma	PK-PD study	–	IC50	6.7 ng/mL (≈ 0.0134 µM)
Oc1ccccc1-c1n[nH]cc1-c1ccnc2ccccc12	orf19.4144 Candida albicans	kinase binding, MIB/MS competition	Candida albicans lysate	10 µM	reference: DMSO	log2 fold change	0.01
COc1ccc(CCNCC(O)COc2cccc(C)c2)cc1OC (stereo not drawn)	Nedd8-cullin1 interaction	neddylation, AlphaScreen	–	100 µM	–	inhibition	87.9%
OC(CCN1CCCCC1)(c1ccccc1)C1CC2C=CC1C2 (stereo not drawn)	–	resting-state EEG	healthy elderly humans	oral, 4 mg, eyes open, LS mean	reference: baseline	change in EEG Beta3-power Pz-O1	1.4%
Nc1ncnc2c1ncn2[C@@H]1O[C@H](COP(=O)(O)OP(=O)(O)OP(=O)(O)O)[C@@H](O)[C@H]1O	Nedd8-cullin1 interaction	neddylation, AlphaScreen	–	100 µM	–	inhibition	14%
CC1=C(Cn2cc([Si](C)(C)C)nn2)C(=O)c2ccccc2C1=O	Schistosoma mansoni	–	adult worms	25 µM, 72 h	–	killing	70.5%
c1coc(-c2n[nH]cc2-c2ccnc3ccccc23)c1	orf19.4144 Candida albicans	kinase binding, MIB/MS competition	Candida albicans lysate	10 µM	reference: DMSO	log2 fold change	-0.18
c1ccc(-c2n[nH]cc2-c2ccnc3ccccc23)nc1	Pom1 kinase Candida albicans	MIB/MS competition binding	Candida albicans cell lysate	1 µM	reference: DMSO, lower = stronger binding	log2 fold change	1.54
CC1=C(Cc2cn(CCO)nn2)C(=O)c2ccccc2C1=O	Schistosoma mansoni	–	adult worms	25 µM, 24 h	–	killing	48%
CC[C@]12CCCN3CCc4c(n(c5ccccc45)[C@@](O)(C(=O)OC)C1)[C@@H]32	Nedd8-cullin1 interaction	neddylation, AlphaScreen	–	100 µM	–	inhibition	12%
[Ca+2]	human TRPA1 W1103A	ion current, two-electrode voltage clamp	Xenopus oocytes	-80 mV, with: AITC, EGTA-AM 0.5 mM 20 min	–	desensitization time constant	106 s and 73.1 s and 255 s and 128 s and 115 s and 84.5 s and 113 s

Excerpt of the above:
SMILES	tested on	test	test system	conditions	how to read	quantity	result
COc1ccc(CCNCC(O)COc2cccc(C)c2)cc1OC (stereo not drawn)	Nedd8-cullin1 interaction	neddylation, AlphaScreen	–	100 µM	–	inhibition	87.9%
